Published values of several laboratories.
Protocols differ between the studies behind these lines. Numbers after ± are the reported error.

Compound	assay	test system	conditions	Cmax
CC(C)C(=O)OCC(=O)[C@@]12O[C@H](C3CCCCC3)O[C@@H]1C[C@H]1[C@@H]3CCC4=CC(=O)C=C[C@]4(C)[C@H]3[C@@H](O)C[C@@]12C	–	children with asthma, serum	inhalation with spacer, 160 µg, day 7, steady state	0.192 ± 0.022 ng/mL
Cc1ccc(Sc2ccccc2N2CCNCC2)c(C)c1	–	healthy men, plasma	oral, 20 mg once daily, fed, day 1	6.5 ng/mL
CN1CC[C@H](c2c(O)cc(O)c3c(=O)cc(-c4ccccc4Cl)oc23)[C@H](O)C1	–	patients with advanced solid tumours, plasma	intravenous infusion, 70 mg/m^2, 1 h infusion, cycle 1, added: FOLFOX	2230 ± 510 nM
N[C@@H](CC(=O)N1CCn2c(nnc2C(F)(F)F)C1)Cc1cc(F)c(F)cc1F	–	healthy Korean subjects, plasma	oral, 100 mg single dose, ABCB1 G2677T/A GA+GT	468 ± 141 ng/mL
CCOc1ccc2cc(-c3nn(CC4CCN(C)CC4)c4ncnc(N)c34)ccc2c1	–	sheep (pregnant, Neospora caninum-infected), plasma	oral, 100 mg/kg, after first dose	2100 ± 700 nM
COc1cc2c(cc1Cc1cccc(Cl)c1F)c(=O)c(C(=O)O)cn2[C@H](CO)C(C)C	–	rhesus macaque, plasma	oral, 30 mg/kg, added: FTC 20 mg/kg, TAF, cobicistat 30 mg/kg	1100 ng/mL
O=C1CCc2ccc(OCCCCN3CCN(c4cccc(Cl)c4Cl)CC3)cc2N1	–	healthy Japanese men, CYP2D6 EM, plasma	oral, 3 mg aripiprazole single, added: paroxetine 20 mg/day	17.7 ± 4.6 ng/mL
Nc1ncc(-c2cnn(CCO)c2)c2scc(-c3ccc(NC(=O)Nc4cccc(F)c4)cc3)c12	–	patient, plasma	oral, 480 mg twice weekly, day 1, trial	1060 ± 680 ng/mL
Cn1cnc2c(F)c(Nc3ccc(Br)cc3Cl)c(C(=O)NOCCO)cc21	–	ESRD on hemodialysis, plasma	oral, 50 mg single dose, dosed after dialysis	725 ng/mL
C[C@@H](O)[C@H]1C(=O)N2C(C(=O)O)=C(S[C@@H]3CN[C@H](C(=O)N(C)C)C3)[C@H](C)[C@H]12	microdialysis	pig (Danish Landrace), subcutaneous adipose tissue	iv infusion, 1000 mg over 10 min, added: vancomycin co-administered	22000 ng/mL
CC(C)(Sc1ccncc1-c1ccc(C#N)c2ccccc12)C(=O)O	–	healthy men, plasma	oral, 2.5 mg once daily, day 14, geometric mean, added: febuxostat 80 mg	4.78 ng/mL
CC(C)=CCC[C@](C)(O[C@@H]1O[C@H](CO)[C@@H](O)[C@H](O)[C@H]1O)[C@H]1CC[C@]2(C)[C@@H]1[C@H](O)C[C@@H]1[C@@]3(C)CC[C@H](O[C@@H]4O[C@H](CO)[C@@H](O)[C@H](O)[C@H]4O)C(C)(C)[C@@H]3CC[C@]12C	LC-MS/MS	healthy female volunteers, serum	oral, 3 g red ginseng	1.03 ± 0.39 ng/mL
CC(C)(Sc1ccncc1-c1ccc(C#N)c2ccccc12)C(=O)O	–	non-Asian male subjects, plasma	oral, 10 mg, multiple doses, fed, geometric least squares mean	18 ng/mL
C[C@@H](N)c1cc(Cl)ccc1Cn1c(=S)[nH]c(=O)c2[nH]ccc21	–	healthy Japanese volunteers, plasma	oral, 10 mg once daily, day 1, geometric mean	43.8 nM
Cc1ccnc2c1NC(=O)c1cccnc1N2C1CC1	–	olive baboon (Papio anubis), female, non-pregnant, serum	oral, 400 mg, tablet, single dose	328 ng/mL
C[C@H]1Oc2cc(cnc2N)-c2c(nn(C)c2C#N)CN(C)C(=O)c2ccc(F)cc21	–	healthy adults	oral tablet, 100 mg single dose, high-fat meal, adjusted geometric mean	484 ng/mL
NC(=O)c1cnc2[nH]ccc2c1N[C@@H]1[C@@H]2CC3C[C@H]1C[C@@](O)(C3)C2	–	healthy Japanese men, plasma	oral, 60 mg, single dose fasted	241 ng/mL

Excerpt of the above:
Compound	assay	test system	conditions	Cmax
C[C@@H](N)c1cc(Cl)ccc1Cn1c(=S)[nH]c(=O)c2[nH]ccc21	–	healthy Japanese volunteers, plasma	oral, 10 mg once daily, day 1, geometric mean	43.8 nM
CCOc1ccc2cc(-c3nn(CC4CCN(C)CC4)c4ncnc(N)c34)ccc2c1	–	sheep (pregnant, Neospora caninum-infected), plasma	oral, 100 mg/kg, after first dose	2100 ± 700 nM
